Results of several laboratories.
Each line is one published result; not all experiments were run side by side. Values joined by “and” are separate records of one study, mostly repeats; a detail may differ. ± marks the error that the study gave.

NCCONC(=O)[C@@H]1CC[C@@H]2CN1C(=O)N2OS(=O)(=O)O
adverse event incidence (refers to: leading to temporary interruption; healthy Chinese men; intravenous, 2 g, treatment-related): 0%

NC(=O)N1c2ccccc2C=Cc2ccccc21
adverse events incidence (refers to: skin disorders (SOC); human male; oral, dose not given, AEs, treatment-related, on drug, CTCAE): 13%

Cc1cc(Nc2cc3ncccc3c(N[C@@H]3C[C@H]4CC[C@@H](C3)N4CCC#N)n2)n[nH]1
skin subcutaneous disorders incidence (healthy human subjects; oral, 100 mg, 2 weeks, single ascending dose): 50%

COC(=O)c1ccc([C@H]2COC(C)(C)[C@@H](c3ccc(Cl)c(Cl)c3)N2)cc1
logD (shake-flask, 1-octanol/buffer; pH 7.4): > 4.7

C=CC(=O)N(C)CCOc1c(N)ncnc1-c1cc(F)cc(NC(=O)c2ccc(C3CC3)cc2F)c1C
AUC (human, whole blood; oral, 200 mg single dose): 0.624 µg·h/mL

NCCCN1c2ccccc2CCc2ccccc21
chromatographic hydrophobicity index (reverse phase LC, C18; acetonitrile gradient, 0.1% formic acid; converted from retention time; baseline: Valko CHI standards): 62.3

COc1ncc(-c2nc3c(n2C(C)C)[C@H](c2ccc(Cl)cc2)N(c2cc(Cl)cn(C)c2=O)C3=O)c(OC)n1
AUC(0-t) geometric mean (human patients, plasma; oral, 50 mg, high-dose arm, cycle 1 day 1): 8.03 µg·h/mL

N#Cc1ccc2c(c1)[C@H]1CCCN(C(=O)c3ccc4[nH]cnc4c3)[C@H]1C2
maximum ACTH level (human; 40 mg, end of trial): 14.4 pmol/L

COc1ccc(Cl)cc1C(=O)NCCc1ccc(S(=O)(=O)NC(=O)NC2CCCCC2)cc1
chromatographic hydrophobicity index (HPLC C18 retention; pH 7.4; baseline: calibration standards): 63.7

C[C@@H](c1ncncc1F)[C@](O)(Cn1cncn1)c1ccc(F)cc1F
drug-related TEAE incidence (refers to: Headache; human; oral, 400 mg): 0%

CO[C@@H]1[C@H](O)[C@@H](CO)O[C@H]1n1c([N+](=O)[O-])nc2c(=O)[nH]c(N)nc21
nucleoside remaining fraction (depurination, RP-HPLC; citrate-phosphate buffer 0.5 mM; 140 min, pH 5, 37 °C): 0.875

C=CCn1c(=O)c2cnc(Nc3ccc(N4CCN(C)CC4)cc3)nc2n1-c1ccc2c(n1)[C@@](O)(CC)CC2
AUC(0-24) (OVCAR-3, female NOD/SCID mouse xenograft, plasma; oral, 60 mg/kg once daily): 21.1 µg·h/mL

O=C(O)CCC(=O)O.[2H]C([2H])([2H])Oc1cc(C)c2[nH]ccc2c1CN1CC[C@@H](C2CC2)C[C@H]1c1ccc(C(=O)O)cc1
TEAE hyponatremia (healthy Chinese subjects; 600 mg, single ascending dose): 16.7%

COc1cccc(-c2cccc(Nc3nccc(NC(C)C)n3)c2)c1
efflux ratio (MDCKII-WT cells; 10 µM, pH 7.4; baseline: Papp B-A over A-B): 1.66

Cl.[2H]C([2H])([2H])CC(=O)c1cnc(NC(=O)C2CC2)cc1Nc1cccc(-c2ncn(C([2H])([2H])[2H])n2)c1OC
Vz/F (geometric mean; human; oral, 10 mg once daily, day 7, fasted, liquid, multiple dose): 152 L

C[C@@H]1COCCN1c1cc(C2([S@](C)(=N)=O)CC2)nc(-c2cc[nH]c3nccc2-3)n1
Nasopharyngitis incidence (Japanese advanced solid tumour patients; oral, 240 mg twice daily, any grade): 16.7%

CC[C@H](C)[C@H](NC(=O)[C@H](Cc1ccccc1)NC(=O)[C@H](CCC(=O)O)NC(=O)[C@H](CCCCNC(=O)COCCOCCNC(=O)COCCOCCNC(=O)CC[C@H](NC(=O)CCCCCCCCCCCCCCCCC(=O)O)C(=O)O)NC(=O)[C@H](C)NC(=O)[C@H](C)NC(=O)[C@H](CCC(N)=O)NC(=O)CNC(=O)[C@H](CCC(=O)O)NC(=O)[C@H](CC(C)C)NC(=O)[C@H](Cc1ccc(O)cc1)NC(=O)[C@H](CO)NC(=O)[C@H](CO)NC(=O)[C@@H](NC(=O)[C@H](CC(=O)O)NC(=O)[C@H](CO)NC(=O)[C@@H](NC(=O)[C@H](Cc1ccccc1)NC(=O)[C@@H](NC(=O)CNC(=O)[C@H](CCC(=O)O)NC(=O)C(C)(C)NC(=O)[C@@H](N)Cc1cnc[nH]1)[C@@H](C)O)[C@@H](C)O)C(C)C)C(=O)N[C@@H](C)C(=O)N[C@@H](Cc1c[nH]c2ccccc12)C(=O)N[C@@H](CC(C)C)C(=O)N[C@H](C(=O)N[C@@H](CCCNC(=N)N)C(=O)NCC(=O)N[C@@H](CCCNC(=N)N)C(=O)NCC(=O)O)C(C)C
QTcF change from baseline (12-lead Holter ECG; healthy humans; subcutaneous, 1.5 mg once weekly, 26 h, steady state; baseline: placebo): -1.3 ms

CC(C)n1c(Nc2cccnc2)nc2cnc(Nc3ccc(N4CCN(C)CC4)cc3)nc21
subjects with TEAE (refers to: alanine aminotransferase increased; healthy human, male; oral, dose not given, CTCAE grade 1-3): 11.9%

Cc1nc(C)c(-c2ccnc(Nc3ccc(N(C)C)c(Cl)c3)n2)s1
logD (octanol/buffer; 67 µM, pH 7.4): 4.57

CC(C)(C(=O)N1CCOc2c(C#N)cncc2C1)C(F)F
subjects with TEAE (refers to: vessel puncture site hypoaesthesia; healthy humans, both sexes; oral, 30 mg single dose): 0%

O=C(COc1ccc(Cl)cc1)NC12CC(c3nnc([C@H]4C[C@@H](OC(F)(F)F)C4)o3)(C1)C2
adverse event incidence (refers to: Hypogeusia; human; 200 mg once daily, 28 (unit not given)): 11.1%

C[C@@H](O)CCOC(=O)C[C@@H](C)O
diastolic blood pressure (human; oral drink, dose not given, 240 min post dose, mean): 68 mmHg

CCN1CCN(Cc2ccc(NC(=O)c3ccc(C)c(NC(=O)c4cncc(-c5cccs5)c4)c3)cc2C(F)(F)F)CC1
plasma concentration (C57BL/6 mouse, plasma; intraperitoneal, 10 mg/kg, 24 h, single dose): not detected

CC1(CNC(=O)c2ccc(-c3ccc(Br)cc3)cc2)NC(=O)NC1=O (centres unmarked)
logD (octanol/buffer; pH 7.4): 3.23

NC1(C(=O)N[C@@H](CCO)c2ccc(Cl)cc2)CCN(c2nc[nH]c3nccc2-3)CC1
incidence of Dysgeusia (metastatic CRPC patients; 320 mg b.i.d., any grade, treatment-related, added: enzalutamide 160 mg daily): 0%

CNC(=O)c1c(C)oc2cc(Oc3ncnc4cc(OC)c(OC)cc34)ccc12
absorption half-life (population PK model; human; oral, without PPIs): < 1 h

O=C1CC[C@H](N2Cc3cc(N4CCN(CC5CCN(c6ccc([C@@H]7c8ccc(O)cc8CC[C@@H]7c7ccccc7)cc6)CC5)CC4)ccc3C2=O)C(=O)N1
participants with TEAE haematoma (human; oral, 200 mg, added: dabigatran etexilate 75 mg): 0%

CCc1c2c(nc3ccc(OC(=O)N4CCC(N5CCCCC5)CC4)cc13)-c1cc3c(c(=O)n1C2)COC(=O)[C@]3(O)CC
tissue concentration (mouse FVB, colon; intraperitoneal, 50 mg/kg, 24 h): 17100 ± 5050 ng/g

CCn1ncc2c1-c1cnc(N)c(c1)O[C@H](C)c1cc(F)ccc1-c1nn(C)nc1C2
unbound plasma trough concentration (female BALB/c nude mice, PDX; oral, 5 mg/kg once daily for 1 days, 12 h): 37 ± 17 nM

C[C@H](N[C@@H](CCc1ccccc1)C(=O)O)C(=O)N1[C@H](C(=O)O)C[C@H]2CCCC[C@@H]21
freeze-thaw stability (human plasma; 1000 pg/mL, 3 cycles at -20 °C; baseline: nominal): 83 ± 14.2%

OCc1nc2ccc(NCc3ccc(C(F)(F)F)cc3)cc2[nH]1
tissue concentration (Balb/c mice, male, brain; oral, 10 mg/kg, 48 h): not detected

[O]=[Co].[O]=[Co][O][Co]=[O]
cobalt concentration (rat, female, faeces, 24-h collection; oral gavage, single, 300 mg/kg (220 mg Co/kg), day 3, vehicle 0.5% HPMC; baseline: vehicle control subtracted): 6.59 µg/g

C[C@H]1CNCCCN1S(=O)(=O)c1cccc2cncc(F)c12
subjects with punctate keratitis (healthy adult men; ocular, 1 drop per eye twice daily, 8 days, adverse drug reaction): 11.1%

Clc1ccc([C@H]2COC[C@@H](c3ccc(-c4ccccn4)cc3)N2)cc1
logD (shake-flask, 1-octanol/buffer; pH 7.4): > 4.7

Cc1nc(C)c(-c2ccnc(Nc3cccc([N+](=O)[O-])c3)n2)s1
logD (octanol/buffer; 67 µM, pH 7.4): 4.34

Cc1cc(-c2nccc3c2ccn3CC(=O)Nc2ccc(-c3cnccn3)cn2)ccn1
subjects with any TEAE (human; 5 mg once daily, multiple ascending dose): 87.5%

CO[C@@H]1[C@H](OC(=O)N2CC(CCN3CCOCC3)C2)CC[C@]2(CO2)[C@H]1[C@@]1(C)O[C@@H]1CC=C(C)C
diastolic blood pressure (humans; subcutaneous, 1.8 mg twice weekly for 4 weeks, day 28; baseline: baseline): 0 ± 8.5 mmHg

CC[C@@H]([C@H](C)O)n1ncn(-c2ccc(N3CCN(c4ccc(OC[C@@H]5CO[C@@](Cn6cncn6)(c6ccc(F)cc6F)C5)cc4)CC3)cc2)c1=O
stability relative error (rat plasma; 800 ng/mL, 21 days, -80 °C; baseline: nominal concentration): -12.4%

CCOC(=O)N1C[C@@H](c2ccc(C(C)=O)cc2)N[C@@H](C(C)(C)C)C1
logD (shake-flask, 1-octanol/buffer; pH 7.4): > 4.7

CC1(CNC(=O)[C@H](CN)NC(=O)c2ccc(C#Cc3ccccc3)cc2)NC(=O)NC1=O (some centres unmarked)
logD (octanol/buffer; pH 7.4): 1.92

CCOC(=O)N1C[C@@H](c2cc(Cl)cc(Cl)c2)N[C@@H](c2ccc(F)c(C#N)c2)C1
logD (shake-flask, 1-octanol/buffer; pH 7.4): > 4.7

CN(CCC(=O)O)C(=O)c1ccc2c(c1)CC[C@@H]1[C@@H]2CC[C@]2(C)C(c3cncc(F)c3)=CC[C@@H]12
total bilirubin change (premenopausal women, endometriosis pain, serum; 60 mg twice daily, visit 4, mean; baseline: baseline): 0.827 mg/dL

C/C=C/C[C@@H](C)C(=O)[C@H]1C(=O)N[C@@H](C(C)C)C(=O)N(C)CC(=O)N(C)[C@@H](CC(C)C)C(=O)N[C@@H](C(C)C)C(=O)N(C)[C@@H](CC(C)C)C(=O)N[C@@H](C)C(=O)N[C@H](C)C(=O)N(C)[C@@H](CC(C)C)C(=O)N(C)[C@@H](CC(C)C)C(=O)N(C)[C@@H](C(C)C)C(=O)N1C
total plasma concentration (Sprague Dawley rat, plasma; intravenous infusion, 0.29 mg/h/kg, 4 h, 4.5 h constant infusion): 889 ng/mL

CC1(C)OC[C@H](C2CCCCC2)N[C@@H]1c1ccc(Cl)c(Cl)c1
logD (shake-flask, 1-octanol/buffer; pH 7.4): > 4.7

CN(C)CC#Cc1ccc2[nH]c3c(c2c1)-c1nc(N)ncc1CCC3
brain concentration (CD-1 mice, male, brain; intraperitoneal, 30 mg/kg, 1 h): 516 ng/g and 444 ng/g

O=C(O)CN1CCCN2CCN(CC(=O)O)CCCN(CC1)Cc1cccc(n1)C2
intact complex (64Cu complex; 48 h, 70 °C, added: DOTA excess): 95%

CCN1/C(=C/C(C)=O)Sc2ccc(F)cc21
PR interval (cynomolgus monkey; oral, 100 mg/kg, 0.5 h post-dose): 90 ± 3 ms

O=C(Nc1nc2cccc(-c3ccc(CN4CCS(=O)(=O)CC4)cc3)n2n1)C1CC1
treatment-emergent adverse events (refers to: rheumatoid arthritis; rheumatoid arthritis patients; oral, 300 mg once daily, 4 weeks, any relatedness): 0%

CCNCCCn1c2c(c3cc(OC)c(OC)cc3c1=O)C(=O)c1cc3c(nc1-2)OCO3
oral bioavailability (male CD1 mouse; oral, 10 mg/kg; baseline: 1 mg/kg intravenous): 14.2%

CCO[C@H]1CCN(Cc2c(OC)cc(C)c3[nH]ccc23)[C@H](c2ccc(C(=O)O)cc2)C1
total Cmax (human severe hepatic impairment, plasma; oral, 200 mg single dose, mean): 3.34 µg/mL

CN1CCN(c2cccc(-c3ccc4ncnc(Nc5ccc(Cl)c(Cl)c5)c4c3)c2)CC1
CLint (human liver microsomes): < 3 µL/min/mg

O=C1CCc2ccc(OCCCCN3CCN(c4cccc(Cl)c4Cl)CC3)cc2N1
adverse event incidence (refers to: Hypotension; genotyped patients, CYP2D6 poor metabolizers; dose not given, long-acting oral or depot): 11%

CCn1cc(C(=O)N2CCOCC2)c(=O)c2cc(NC3Cc4ccccc4C3)cnc21
Tmax (humans, fasted, plasma; oral, 300 mg, single dose, suspension): 1.5 h

Cc1ccc([C@@H]2O[C@H](CO)[C@@H](O)[C@H](O)[C@H]2O)cc1Cc1ccc(-c2ccc(F)cc2)s1
urinary chloride excretion change (Japanese type 2 diabetes patients; 100 mg, day 3, 24 h urine collection; baseline: baseline): 19.1 mEq

CCc1cc(C(=O)NC)c2nccc(N3CCc4c(cc(Cn5ccnc5)cc4-c4cn(C)nc4C(F)(F)F)C3=O)c2c1
change in clinical chemistry or haematology parameter (refers to: TBA; Sprague Dawley rat; oral, 100 mg/kg once daily, 7 days; baseline: vehicle): 54.5%

CN(CCC#N)C1CCN(C(=O)Cn2cc(NC(=O)c3cnn4cccnc34)c(-c3cc(Cl)ccc3OC(F)F)n2)CC1
LDL cholesterol change (human, single ascending dose; 5 mg, day 4; baseline: baseline): -3.2 mg/dL

Repeated from above:
CCn1ncc2c1-c1cnc(N)c(c1)O[C@H](C)c1cc(F)ccc1-c1nn(C)nc1C2
unbound plasma trough concentration (female BALB/c nude mice, PDX; oral, 5 mg/kg once daily for 1 days, 12 h): 37 ± 17 nM

C[C@H](N[C@@H](CCc1ccccc1)C(=O)O)C(=O)N1[C@H](C(=O)O)C[C@H]2CCCC[C@@H]21
freeze-thaw stability (human plasma; 1000 pg/mL, 3 cycles at -20 °C; baseline: nominal): 83 ± 14.2%

OCc1nc2ccc(NCc3ccc(C(F)(F)F)cc3)cc2[nH]1
tissue concentration (Balb/c mice, male, brain; oral, 10 mg/kg, 48 h): not detected
